{"data": "Results collected from several papers", "note": "A part holds a random share of what one study measured. pIC50: −log10 of the molar value.", "UniProt P43144, sequence (whole entry, looked up)": "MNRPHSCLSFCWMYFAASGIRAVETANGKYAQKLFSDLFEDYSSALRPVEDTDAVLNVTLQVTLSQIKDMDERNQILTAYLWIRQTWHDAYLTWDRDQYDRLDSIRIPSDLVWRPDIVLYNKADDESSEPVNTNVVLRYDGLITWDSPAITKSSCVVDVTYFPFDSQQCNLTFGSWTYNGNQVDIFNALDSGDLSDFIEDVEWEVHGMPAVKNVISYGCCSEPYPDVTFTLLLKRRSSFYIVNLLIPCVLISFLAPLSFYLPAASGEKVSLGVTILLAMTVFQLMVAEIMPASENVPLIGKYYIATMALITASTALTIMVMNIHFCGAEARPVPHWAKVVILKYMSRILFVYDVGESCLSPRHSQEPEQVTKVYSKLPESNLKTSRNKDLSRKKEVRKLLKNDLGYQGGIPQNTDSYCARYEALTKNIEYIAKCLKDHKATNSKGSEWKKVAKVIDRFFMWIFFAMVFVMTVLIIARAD", "UniProt Q9JLB5, sequence (whole entry, looked up)": "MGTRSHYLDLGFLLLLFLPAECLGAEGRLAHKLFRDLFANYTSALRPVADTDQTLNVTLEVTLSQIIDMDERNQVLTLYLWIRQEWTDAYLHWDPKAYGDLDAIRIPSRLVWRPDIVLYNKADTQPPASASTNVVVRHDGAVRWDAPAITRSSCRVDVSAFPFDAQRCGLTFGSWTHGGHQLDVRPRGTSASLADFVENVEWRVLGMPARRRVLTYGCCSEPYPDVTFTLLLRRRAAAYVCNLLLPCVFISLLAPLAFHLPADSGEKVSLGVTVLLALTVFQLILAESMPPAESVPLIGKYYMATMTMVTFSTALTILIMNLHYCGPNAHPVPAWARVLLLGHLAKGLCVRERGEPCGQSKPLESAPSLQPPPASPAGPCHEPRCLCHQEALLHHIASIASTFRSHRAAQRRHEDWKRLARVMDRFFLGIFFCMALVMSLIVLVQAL"}
{"data": "Study 1", "target": "Neuronal acetylcholine receptor; alpha9/alpha10 (Homo sapiens, UniProt Q9GZZ6+Q9UGM1)", "UniProt Q9GZZ6, sequence (whole entry, looked up)": "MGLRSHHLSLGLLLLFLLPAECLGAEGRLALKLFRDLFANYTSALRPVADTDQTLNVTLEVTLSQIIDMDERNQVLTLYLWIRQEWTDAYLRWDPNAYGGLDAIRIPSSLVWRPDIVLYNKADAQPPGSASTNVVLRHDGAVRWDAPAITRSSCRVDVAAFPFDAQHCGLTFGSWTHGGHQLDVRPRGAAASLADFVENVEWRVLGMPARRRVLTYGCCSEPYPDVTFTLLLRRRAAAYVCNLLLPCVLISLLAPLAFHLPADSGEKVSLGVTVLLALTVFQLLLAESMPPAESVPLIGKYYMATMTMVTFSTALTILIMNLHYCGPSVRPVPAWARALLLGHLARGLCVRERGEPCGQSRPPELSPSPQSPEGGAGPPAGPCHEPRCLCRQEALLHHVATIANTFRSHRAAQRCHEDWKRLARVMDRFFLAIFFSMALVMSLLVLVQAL", "UniProt Q9UGM1, sequence (whole entry, looked up)": "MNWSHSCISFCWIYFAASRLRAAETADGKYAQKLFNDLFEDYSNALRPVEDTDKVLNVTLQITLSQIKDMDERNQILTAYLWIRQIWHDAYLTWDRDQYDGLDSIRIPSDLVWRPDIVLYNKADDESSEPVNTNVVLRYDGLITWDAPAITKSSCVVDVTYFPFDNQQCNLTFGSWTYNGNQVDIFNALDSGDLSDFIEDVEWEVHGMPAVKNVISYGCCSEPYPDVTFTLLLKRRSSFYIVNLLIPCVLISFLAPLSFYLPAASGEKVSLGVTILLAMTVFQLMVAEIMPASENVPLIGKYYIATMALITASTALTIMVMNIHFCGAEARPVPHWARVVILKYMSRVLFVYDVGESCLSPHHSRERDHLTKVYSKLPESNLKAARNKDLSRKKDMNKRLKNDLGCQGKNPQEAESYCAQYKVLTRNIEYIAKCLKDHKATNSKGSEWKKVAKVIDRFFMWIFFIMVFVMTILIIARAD"}
{"Structure (SMILES)": "N=C(N)NCCC[C@@H]1NC(=O)[C@H](Cc2ccc(O)cc2)NC(=O)[C@H](CCCNC(=N)N)NC(=O)[C@@H]2CSSC[C@H](NC(=O)CN)C(=O)N[C@@H](CSSC[C@@H](C(=O)N[C@@H](Cc3ccc(O)cc3)C(=O)O)NC1=O)C(=O)N[C@@H](CO)C(=O)N[C@@H](CC(=O)O)C(=O)N1CCC[C@H]1C(=O)N[C@@H](CCCNC(=N)N)C(=O)N2", "pIC50": 8.68}
{"Structure (SMILES)": "N=C(N)NCCCC[C@@H]1NC(=O)[C@H](Cc2ccc(O)cc2)NC(=O)[C@H](CCCNC(=N)N)NC(=O)[C@@H]2CSSC[C@H](NC(=O)CN)C(=O)N[C@@H](CSSC[C@@H](C(=O)N[C@@H](CCCNC(=N)N)C(=O)O)NC1=O)C(=O)N[C@@H](CO)C(=O)N[C@@H](CC(=O)O)C(=O)N1CCC[C@H]1C(=O)N[C@@H](CCCNC(=N)N)C(=O)N2", "pIC50": 7.39}
{"Structure (SMILES)": "N=C(N)NCCC[C@@H]1NC(=O)[C@H](Cc2ccc(O)cc2)NC(=O)[C@H](CCCNC(=N)N)NC(=O)[C@@H]2CSSC[C@H](NC(=O)CN)C(=O)N[C@@H](CSSC[C@@H](C(=O)N[C@@H](CCCCN)C(=O)O)NC1=O)C(=O)N[C@@H](CO)C(=O)N[C@@H](CC(=O)O)C(=O)N1CCC[C@H]1C(=O)N[C@@H](CCCNC(=N)N)C(=O)N2", "pIC50": "< 6.00"}
{"data": "Single results of other studies"}
{"SMILES": "CC(=O)N[C@@H](CC(=O)O)C(=O)N[C@@H](CCC(=O)O)C(=O)N[C@@H](Cc1ccc(OP(=O)(O)O)cc1)C(=O)N[C@@H](CC(=O)O)C(=O)N[C@@H](CC(=O)O)C(=O)N1CCC[C@H]1C(=O)N[C@@H](Cc1ccccc1)C(N)=O", "target": "Secreted effector protein, N-terminal domain (Yersinia pestis, UniProt O68720)", "assay": "binding, ITC", "quantity": "-TΔS", "result": "31 kJ/mol"}
{"SMILES": "CC[C@H](C)[C@@H]1NC(=O)[C@@H]2CCCN2C(=O)[C@H](CO)NC(=O)[C@H](CCSC)NC(=O)[C@H](C)NC(=O)[C@H](C)NC(=O)[C@@H]2CSSC[C@H](NC(=O)CN)C(=O)N[C@@H](CSSC[C@@H](C(N)=O)NC1=O)C(=O)N[C@@H](CO)C(=O)N[C@@H](Cc1cnc[nH]1)C(=O)N1CCC[C@H]1C(=O)N[C@@H](C(C)C)C(=O)N2", "target": "Nicotinic acetylcholine receptor alpha9/alpha10 (Rattus norvegicus, UniProt P43144+Q9JLB5)", "assay": "antagonist", "quantity": "pIC50", "result": "< 5.00"}
{"SMILES": "CC[C@H](C)[C@@H]1NC(=O)[C@H](CCC(=O)O)NC(=O)[C@@H]2CCCN2C(=O)[C@H](Cc2cnc[nH]2)NC(=O)[C@H](CC(=O)O)NC(=O)[C@H](C(C)C)NC(=O)[C@H](CC(N)=O)NC(=O)[C@@H]2CSSC[C@H](NC(=O)CN)C(=O)N[C@@H](CSSC[C@@H](C(N)=O)NC1=O)C(=O)N[C@@H](CO)C(=O)N[C@@H](Cc1cnc[nH]1)C(=O)N1CCC[C@H]1C(=O)N[C@@H](C)C(=O)N2", "target": "Neuronal acetylcholine receptor; alpha9/alpha10 (Homo sapiens, UniProt Q9GZZ6+Q9UGM1)", "conditions": "cell-based", "quantity": "pIC50", "result": "< 5.00"}
{"note": "For quick reference, copied from above (single results of other studies):"}
{"SMILES": "CC[C@H](C)[C@@H]1NC(=O)[C@@H]2CCCN2C(=O)[C@H](CO)NC(=O)[C@H](CCSC)NC(=O)[C@H](C)NC(=O)[C@H](C)NC(=O)[C@@H]2CSSC[C@H](NC(=O)CN)C(=O)N[C@@H](CSSC[C@@H](C(N)=O)NC1=O)C(=O)N[C@@H](CO)C(=O)N[C@@H](Cc1cnc[nH]1)C(=O)N1CCC[C@H]1C(=O)N[C@@H](C(C)C)C(=O)N2", "target": "Nicotinic acetylcholine receptor alpha9/alpha10 (Rattus norvegicus, UniProt P43144+Q9JLB5)", "assay": "antagonist", "quantity": "pIC50", "result": "< 5.00"}
